Results of several laboratories.
A part holds a random share of what one study measured.
Chain of UniProt Q9Y616 (whole entry, looked up): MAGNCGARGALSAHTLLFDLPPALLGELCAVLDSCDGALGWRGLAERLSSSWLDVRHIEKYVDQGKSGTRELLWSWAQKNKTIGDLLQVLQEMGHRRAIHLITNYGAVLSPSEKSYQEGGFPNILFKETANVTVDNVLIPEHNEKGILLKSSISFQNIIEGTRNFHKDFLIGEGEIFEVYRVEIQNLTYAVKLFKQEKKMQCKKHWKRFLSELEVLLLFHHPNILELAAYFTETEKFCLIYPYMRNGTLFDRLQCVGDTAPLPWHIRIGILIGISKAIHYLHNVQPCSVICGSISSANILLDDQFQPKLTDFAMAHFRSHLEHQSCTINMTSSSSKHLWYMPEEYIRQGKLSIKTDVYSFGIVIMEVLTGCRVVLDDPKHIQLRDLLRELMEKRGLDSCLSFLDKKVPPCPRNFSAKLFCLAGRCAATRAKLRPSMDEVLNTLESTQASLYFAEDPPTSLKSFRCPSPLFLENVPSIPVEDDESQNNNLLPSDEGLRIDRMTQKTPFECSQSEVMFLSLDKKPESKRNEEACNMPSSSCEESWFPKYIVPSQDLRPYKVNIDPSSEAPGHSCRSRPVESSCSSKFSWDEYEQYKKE
Chain of UniProt Q9HBY8 (whole entry, looked up): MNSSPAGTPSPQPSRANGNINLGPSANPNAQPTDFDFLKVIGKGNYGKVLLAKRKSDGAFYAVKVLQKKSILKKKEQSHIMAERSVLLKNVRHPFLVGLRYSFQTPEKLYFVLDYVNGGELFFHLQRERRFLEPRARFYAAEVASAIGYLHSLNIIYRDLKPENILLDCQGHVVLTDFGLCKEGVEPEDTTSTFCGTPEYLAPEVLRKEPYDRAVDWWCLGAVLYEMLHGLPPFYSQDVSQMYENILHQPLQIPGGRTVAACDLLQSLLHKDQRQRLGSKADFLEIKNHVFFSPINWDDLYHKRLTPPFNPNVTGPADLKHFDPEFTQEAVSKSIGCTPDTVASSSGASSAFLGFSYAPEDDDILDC
Chain of UniProt P51451 (whole entry, looked up): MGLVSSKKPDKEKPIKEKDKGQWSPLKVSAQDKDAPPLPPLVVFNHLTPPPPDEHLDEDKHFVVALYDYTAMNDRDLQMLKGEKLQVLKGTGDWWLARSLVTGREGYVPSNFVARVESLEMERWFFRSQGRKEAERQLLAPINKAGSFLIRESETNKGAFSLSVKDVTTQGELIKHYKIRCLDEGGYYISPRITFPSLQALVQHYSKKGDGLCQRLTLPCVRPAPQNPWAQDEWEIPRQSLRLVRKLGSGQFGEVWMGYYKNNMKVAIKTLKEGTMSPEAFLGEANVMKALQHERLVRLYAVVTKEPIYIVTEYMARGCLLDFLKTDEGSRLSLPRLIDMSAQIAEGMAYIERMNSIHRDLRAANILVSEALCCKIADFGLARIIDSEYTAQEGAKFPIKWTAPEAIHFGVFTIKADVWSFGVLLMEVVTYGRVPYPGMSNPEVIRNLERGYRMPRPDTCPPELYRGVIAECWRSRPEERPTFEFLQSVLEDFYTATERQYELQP
Chain of UniProt Q13705 (whole entry, looked up): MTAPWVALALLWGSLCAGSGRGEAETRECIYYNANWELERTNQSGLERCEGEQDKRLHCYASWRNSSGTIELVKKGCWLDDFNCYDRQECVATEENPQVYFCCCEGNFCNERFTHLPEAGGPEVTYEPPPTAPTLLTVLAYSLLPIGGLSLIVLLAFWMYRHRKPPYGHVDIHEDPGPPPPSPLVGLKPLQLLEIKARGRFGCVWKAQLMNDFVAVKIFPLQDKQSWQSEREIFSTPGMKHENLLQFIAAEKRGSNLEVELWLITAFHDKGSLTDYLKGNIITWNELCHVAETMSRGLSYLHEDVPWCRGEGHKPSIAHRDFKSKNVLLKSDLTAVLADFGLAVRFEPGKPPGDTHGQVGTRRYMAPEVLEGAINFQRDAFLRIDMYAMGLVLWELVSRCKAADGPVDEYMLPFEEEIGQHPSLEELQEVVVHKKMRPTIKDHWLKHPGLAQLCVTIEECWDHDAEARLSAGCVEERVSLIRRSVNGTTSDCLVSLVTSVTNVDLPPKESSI
Chain of UniProt Q8IW41 (whole entry, looked up): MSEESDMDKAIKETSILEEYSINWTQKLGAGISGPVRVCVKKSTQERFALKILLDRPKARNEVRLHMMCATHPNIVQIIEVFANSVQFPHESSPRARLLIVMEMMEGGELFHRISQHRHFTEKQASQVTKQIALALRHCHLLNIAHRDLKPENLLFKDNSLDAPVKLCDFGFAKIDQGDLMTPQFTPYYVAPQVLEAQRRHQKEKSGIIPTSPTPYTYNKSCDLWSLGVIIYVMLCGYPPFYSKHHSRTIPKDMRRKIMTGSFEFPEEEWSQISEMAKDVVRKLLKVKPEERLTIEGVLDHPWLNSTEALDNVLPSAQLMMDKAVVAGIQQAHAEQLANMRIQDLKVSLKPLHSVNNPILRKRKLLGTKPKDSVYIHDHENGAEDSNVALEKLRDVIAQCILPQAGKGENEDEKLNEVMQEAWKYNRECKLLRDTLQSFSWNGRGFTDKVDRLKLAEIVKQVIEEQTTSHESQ
Chain of UniProt Q13557 (whole entry, looked up): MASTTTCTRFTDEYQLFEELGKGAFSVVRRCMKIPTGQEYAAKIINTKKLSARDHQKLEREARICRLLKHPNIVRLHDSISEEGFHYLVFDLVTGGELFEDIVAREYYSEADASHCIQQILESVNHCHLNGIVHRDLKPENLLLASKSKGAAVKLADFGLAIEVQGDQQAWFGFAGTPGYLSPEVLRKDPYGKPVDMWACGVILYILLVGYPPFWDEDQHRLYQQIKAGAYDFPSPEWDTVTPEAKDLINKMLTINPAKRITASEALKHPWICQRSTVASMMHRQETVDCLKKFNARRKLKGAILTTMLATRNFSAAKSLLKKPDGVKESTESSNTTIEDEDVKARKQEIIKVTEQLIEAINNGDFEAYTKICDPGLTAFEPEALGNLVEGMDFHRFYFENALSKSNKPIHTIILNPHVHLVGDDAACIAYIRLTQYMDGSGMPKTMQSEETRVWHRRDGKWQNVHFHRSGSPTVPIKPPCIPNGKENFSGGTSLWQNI
Chain of UniProt Q16566 (whole entry, looked up): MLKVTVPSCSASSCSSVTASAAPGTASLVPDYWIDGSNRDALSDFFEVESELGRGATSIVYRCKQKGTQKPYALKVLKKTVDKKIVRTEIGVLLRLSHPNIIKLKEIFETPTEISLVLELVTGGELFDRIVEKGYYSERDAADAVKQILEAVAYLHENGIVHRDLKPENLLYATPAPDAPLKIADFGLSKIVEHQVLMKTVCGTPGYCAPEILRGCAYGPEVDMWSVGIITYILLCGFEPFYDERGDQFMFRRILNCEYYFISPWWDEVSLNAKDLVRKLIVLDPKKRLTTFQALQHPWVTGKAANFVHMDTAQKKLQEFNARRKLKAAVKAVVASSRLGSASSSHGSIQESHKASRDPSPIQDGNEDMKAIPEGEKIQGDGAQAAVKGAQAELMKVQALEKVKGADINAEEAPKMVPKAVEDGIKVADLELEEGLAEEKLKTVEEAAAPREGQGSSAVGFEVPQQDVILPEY
Chain of UniProt P11802 (whole entry, looked up): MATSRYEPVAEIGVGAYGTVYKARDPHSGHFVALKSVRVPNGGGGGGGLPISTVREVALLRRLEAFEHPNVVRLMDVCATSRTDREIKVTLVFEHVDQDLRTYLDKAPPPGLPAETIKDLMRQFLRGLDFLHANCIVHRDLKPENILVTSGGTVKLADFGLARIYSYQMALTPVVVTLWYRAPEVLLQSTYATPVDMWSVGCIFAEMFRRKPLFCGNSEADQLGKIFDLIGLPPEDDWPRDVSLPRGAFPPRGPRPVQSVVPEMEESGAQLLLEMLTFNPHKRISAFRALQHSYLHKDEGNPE

Series 1 — method: RNA Bind-n-Seq; molecule type: RNA; sample: in vitro; concentration: 15 pmol; notes: 4-mer, random 30-nt RNA, single round; added: 3 µM RocA, 2 mM AMP-PNP; reference: mean of 4-mers; reading: higher = stronger binding
Target: Eukaryotic initiation factor 4A-I (EIF4A1, Homo sapiens, UniProt P60842, residues 1-406, full length assumed)
Chain of UniProt P60842 (whole entry, looked up): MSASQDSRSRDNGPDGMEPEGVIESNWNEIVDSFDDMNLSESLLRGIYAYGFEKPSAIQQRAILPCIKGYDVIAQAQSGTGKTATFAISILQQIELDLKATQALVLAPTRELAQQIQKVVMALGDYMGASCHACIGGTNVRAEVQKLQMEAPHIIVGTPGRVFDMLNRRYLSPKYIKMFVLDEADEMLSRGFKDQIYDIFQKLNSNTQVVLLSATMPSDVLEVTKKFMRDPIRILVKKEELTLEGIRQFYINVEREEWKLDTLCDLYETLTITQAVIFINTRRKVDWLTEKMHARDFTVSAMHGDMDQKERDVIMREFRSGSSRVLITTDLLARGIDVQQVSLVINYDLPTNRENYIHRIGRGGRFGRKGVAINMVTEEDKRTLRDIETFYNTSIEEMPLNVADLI
Under “4-mer enrichment Z-score”, `UCGC` is recorded as -0.873.
`CAAU` — result for “4-mer enrichment Z-score”: -0.908.
For `UCUC`, “4-mer enrichment Z-score” read -1.31.
`UUUG` — result for “4-mer enrichment Z-score”: 0.673.
For `GUUC`, “4-mer enrichment Z-score” read -0.794.
For `UACG`, “4-mer enrichment Z-score” read -0.334.
For `UUCU`, “4-mer enrichment Z-score” read -0.684.
`ACCC`: “4-mer enrichment Z-score” -0.998.

Series 2 — method: aptamer microarray, sandwich; molecule type: DNA with 2'F-ANA; sample: in vitro; concentration: 200 nM; added: Cy3 exosite-II aptamer, 400 nM; reading: higher = stronger binding; strand: GGTTGGTGTGGTTGG
Target: Prothrombin, mature alpha-thrombin (F2, Homo sapiens, UniProt P00734)
Notes: whole 15-mer aptamer, many near background
`2'F-ANA at 2 4 5 6 7 10 12` — result for “mean fluorescence intensity”: 64.9 a.u.
`2'F-ANA at 1 7 8 10 13` — result for “mean fluorescence intensity”: 57 a.u.
Under “mean fluorescence intensity”, `2'F-ANA at 2 3 5 6 7 8 10 12` is recorded as 65.2 a.u.
Under “mean fluorescence intensity”, `2'F-ANA at 2 3 4 6 7 9 10 12 14` is recorded as 165 a.u.
Under “mean fluorescence intensity”, `2'F-ANA at 2 7 8 9 12 14` is recorded as 210 a.u.
Under “mean fluorescence intensity”, `2'F-ANA at 4 5 8 9 13 14` is recorded as 45.4 a.u.
`2'F-ANA at 2 4 5 6 13 14 15` — result for “mean fluorescence intensity”: 54.5 a.u.
`2'F-ANA at 4 7 15`: “mean fluorescence intensity” 341 a.u.

Series 3 — read-out: enzyme activity; action: inhibitor; concentration: 0.5 µM; reference: control
Target: Maternal embryonic leucine zipper kinase (MELK, Homo sapiens, UniProt Q14680)
Chain of UniProt Q14680 (whole entry, looked up): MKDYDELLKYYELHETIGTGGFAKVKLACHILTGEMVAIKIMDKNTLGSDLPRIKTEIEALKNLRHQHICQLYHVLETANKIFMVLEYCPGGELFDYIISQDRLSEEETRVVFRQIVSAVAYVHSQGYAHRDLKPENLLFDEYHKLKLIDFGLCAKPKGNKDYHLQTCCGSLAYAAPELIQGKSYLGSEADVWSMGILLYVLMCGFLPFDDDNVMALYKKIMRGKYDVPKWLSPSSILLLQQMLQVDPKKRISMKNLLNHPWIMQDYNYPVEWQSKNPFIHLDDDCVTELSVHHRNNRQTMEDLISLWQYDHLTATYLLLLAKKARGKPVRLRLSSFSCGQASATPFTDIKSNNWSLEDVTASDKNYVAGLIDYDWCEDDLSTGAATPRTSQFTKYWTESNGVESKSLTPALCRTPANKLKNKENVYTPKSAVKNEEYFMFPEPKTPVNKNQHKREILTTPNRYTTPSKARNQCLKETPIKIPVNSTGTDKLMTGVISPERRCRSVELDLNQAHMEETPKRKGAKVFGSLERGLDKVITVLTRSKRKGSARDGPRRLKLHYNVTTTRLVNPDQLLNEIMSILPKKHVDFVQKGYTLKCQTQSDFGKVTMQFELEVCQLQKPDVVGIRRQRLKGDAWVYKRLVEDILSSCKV
For `Cc1ccc(NC2=CC(=O)c3sc(C)nc3C2=O)cc1`, the remaining activity was 93.2%.
`COc1ccc(S(=O)(=O)N(CCO)c2ccccc2CN(C)CC=Cc2ccc(Cl)cc2)cc1` has a remaining activity of 99.4%.
`Fc1ccc(-c2nc3n(c2-c2ccncc2)CCS3)cc1` gave a remaining activity of 102%.
`CC(C)(C)n1nc(Cc2cccc3ccccc23)c2c(N)ncnc21` has a remaining activity of 90.7%.
For `CCc1[nH]c(-c2ccc(OC)cc2)nc1-c1ccncc1`, the remaining activity was 110%.
For `Cc1cc(Nc2nc(-c3ccccc3)nc3ccccc23)n[nH]1`, the remaining activity was 69.1%.
`CC(=O)c1ccc(N2CCOCC2)cc1O` gave a remaining activity of 102%.
For `Nc1nc(Nc2ccc(S(N)(=O)=O)cc2)nn1C(=O)c1c(F)cccc1F`, the remaining activity was 87.2%.
With `O=C1Cc2c([nH]c3ccc([N+](=O)[O-])cc23)-c2ccccc2N1` the remaining activity was 71.7%.

Series 4 — method: competition with immobilised ligand; concentration: 1 µM
SMILES: CC(=O)N1CCC(c2ccc(C(=O)NC3=NCCN3)cc2C(F)(F)F)CC1
For WNK4 (Homo sapiens, UniProt Q96J92); cell-free assay: remaining binding read 100%.
For ACVR2B (Homo sapiens, UniProt Q13705); binding: remaining binding read 100%.
It gave 88% for remaining binding (MAPKAPK5 (Homo sapiens, UniProt Q8IW41); cell-free assay).
The remaining binding was 100% (Cyclin-dependent kinase 4, with cyclin D3 (CDK4, Homo sapiens, UniProt P11802); cell-free assay).
For CDK2 (Homo sapiens, UniProt P24941); cell-free assay: remaining binding read 100%.
The remaining binding was 92% (CAMK4 (Homo sapiens, UniProt Q16566); cell-free assay).
SGK2 (Homo sapiens, UniProt Q9HBY8); cell-free assay — remaining binding: 100%.
The remaining binding was 100% (Myosin-IIIa (MYO3A, Homo sapiens, UniProt Q8NEV4); binding).
IRAK3 (Homo sapiens, UniProt Q9Y616); cell-free assay — remaining binding: 100%.
It gave 100% for remaining binding (Myosin-IIIb (MYO3B, Homo sapiens, UniProt Q8WXR4); binding).
The remaining binding was 98% (FLT3 (Homo sapiens, UniProt P36888, D835Y); cell-free assay).
For Tyrosine-protein kinase JAK3, JH1 (JAK3, Homo sapiens, UniProt P52333); cell-free assay: remaining binding read 100%.
The remaining binding was 97% (FLT3 (Homo sapiens, UniProt P36888, D835V); cell-free assay).
The remaining binding was 100% (CAMK2D (Homo sapiens, UniProt Q13557); cell-free assay).
It gave 94% for remaining binding (BLK (Homo sapiens, UniProt P51451); cell-free assay).

Repeated from above (series 2):
`2'F-ANA at 4 7 15`: “mean fluorescence intensity” 341 a.u.
`2'F-ANA at 2 4 5 6 13 14 15` — result for “mean fluorescence intensity”: 54.5 a.u.
Under “mean fluorescence intensity”, `2'F-ANA at 2 7 8 9 12 14` is recorded as 210 a.u.
`2'F-ANA at 1 7 8 10 13` — result for “mean fluorescence intensity”: 57 a.u.
Under “mean fluorescence intensity”, `2'F-ANA at 4 5 8 9 13 14` is recorded as 45.4 a.u.
